Experimental data of several laboratories.
Protocols differ between the studies behind these lines. ≈ marks a conversion by molar mass, not a printed value.
Organism: Mycolicibacterium smegmatis

| Compound | assay | test system | conditions | measurement | result |
| --- | --- | --- | --- | --- | --- |
| Cc1nc2ccc(C(F)(F)F)cn2c1C(=O)NCc1ccc2oc(-c3ccc(Cl)cc3)nc2c1 |  |  | 72 h | MIC | > 100 µM |
| CCc1ccn2c(C(=O)NCc3ccccc3)c(C)nc2c1 | microbial growth | MC2155 | 2 mM, 20 h | inhibition zone | 0 mm |
| CC(C)[C@H]1NC(=O)[C@H](Cc2ccccc2)NC(=O)[C@@H](C(C)C)NC(=O)[C@@H](C)NC(=O)[C@H](CO)NC(=O)[C@@H](Cc2c(-c3ccc(-c4ccc(-c5ccccc5)cc4)cc3)[nH]c3ccccc23)NC(=O)[C@@H](C)NC1=O |  |  |  | MIC90 | > 100 µM |
| Cc1ccc2nc(C)c(C(=O)NCc3ccccc3)n2c1 | microbial growth | MC2155 | 2 mM | inhibition zone | 26 mm |
| CCc1nc2cc(Br)ccn2c1C(=O)NCc1ccc2oc(-c3ccc(OC(F)(F)F)cc3)nc2c1 |  |  | 72 h | MIC | > 25 µM |
| CN[C@@H]1[C@H](O)[C@H](NC)[C@H]2O[C@]3(O)[C@H](O[C@@H]2[C@H]1O)O[C@H](C)C[C@H]3NC(=O)Cc1ccccn1 |  |  |  | MIC | 25 mg/L |
| Cc1ccc2nc(C)c(CC(=O)NCc3ccc(N(C)C)cc3)n2c1 | microbial growth | MC2155 | 2 mM, 20 h | inhibition zone | 20 mm |
| CC(C)[C@H]1NC(=O)[C@H](Cc2ccccc2)NC(=O)[C@@H](C(C)C)NC(=O)[C@@H](C)NC(=O)[C@H](CO)NC(=O)[C@@H](Cc2c(-c3ccc(C4CCCCC4)cc3)[nH]c3ccccc23)NC(=O)[C@@H](CO)NC1=O |  |  |  | MIC90 | > 100 µM |
| Cc1ccc(CNC(=O)C(=O)c2c(C)nc3ccc(C)cn23)cc1 | microbial growth, broth dilution |  |  | MIC | > 128 µM |
| CC(C)[C@H]1NC(=O)[C@H](Cc2ccccc2)NC(=O)[C@@H](C(C)C)NC(=O)[C@@H](C)NC(=O)[C@H](CO)NC(=O)[C@@H](Cc2c(-c3ccc(-c4ccc5ccccc5c4)cc3)[nH]c3ccccc23)NC(=O)[C@@H](CO)NC1=O |  |  |  | MIC90 | > 100 µM |
| Cc1ccc2nc(C)c(C(=O)C(=O)N(C)C)n2c1 | microbial growth | MC2155 | 2 mM, 20 h | inhibition zone | 0 mm |
| CCc1nc2cc(OC(F)(F)F)ccn2c1C(=O)NCc1ccc2oc(-c3ccc(OC(F)(F)F)cc3)nc2c1 |  |  | 72 h | MIC | > 50 µM |
| COc1ccc(-c2[nH]c3ccccc3c2C[C@H]2NC(=O)[C@@H](CO)NC(=O)[C@@H](C(C)C)NC(=O)[C@H](Cc3ccccc3)NC(=O)[C@@H](C(C)C)NC(=O)[C@@H](C)NC(=O)[C@H](CO)NC2=O)c(OC)c1 |  |  |  | MIC90 | > 100 µM |
| Cc1nc2cc(C(F)(F)F)ccn2c1C(=O)NCc1ccc2oc(-c3ccc(Cl)cc3)nc2c1 |  |  | 72 h | MIC | > 100 µM |
| Cc1cc(=O)oc2cc(OCCCCn3cc(COc4ccc(N5C(N)=NC(N)=NC56CCCCC6)cc4)nn3)ccc12 | microbial growth | ATCC700084 MC2155 |  | MIC50 | 0.7 µM (≈ 0.409 µg/mL) |
| CCc1nc2ccc(Cl)cn2c1C(=O)NC/C=C(\C)CC/C=C(\C)CCC=C(C)C |  |  |  | MIC90 | > 100 µM |
| CC(C)[C@H]1NC(=O)[C@H](Cc2ccccc2)NC(=O)[C@@H](C(C)C)NC(=O)[C@@H](C)NC(=O)[C@H](C)NC(=O)[C@@H](Cc2c(-c3ccc(-c4ccc5ccccc5c4)cc3)[nH]c3ccccc23)NC(=O)[C@@H](C)NC1=O |  |  |  | MIC90 | 100 µM (≈ 94.7 µg/mL) |

For quick reference, copied from above:
| Compound | assay | test system | conditions | measurement | result |
| --- | --- | --- | --- | --- | --- |
| CCc1nc2ccc(Cl)cn2c1C(=O)NC/C=C(\C)CC/C=C(\C)CCC=C(C)C |  |  |  | MIC90 | > 100 µM |
| CCc1nc2cc(Br)ccn2c1C(=O)NCc1ccc2oc(-c3ccc(OC(F)(F)F)cc3)nc2c1 |  |  | 72 h | MIC | > 25 µM |
